Measured values collected from several papers.
Parts stem from different laboratories: compare values within a part only.

Sample 1
Target: TAR DNA-binding protein 43, full length, His tag (TARDBP, Homo sapiens, UniProt Q13148, residues 1-414)
Method: RNA Bind-n-Seq
Molecule type: RNA
Medium: in vitro
Concentration: 20 nM
Notes: 6-mer, flanks averaged, single round
With: 150 mM KCl
Baseline: input library
Direction: higher = stronger binding
Quantity: 6-mer enrichment (R)
GAUUAA: 0.629
UCACAA: 0.603
UACUCC: 0.605
CCUGUA: 0.65
ACGUAA: 0.628
AGCCAG: 0.936
GCGUAG: 1.45
GUUGGA: 1.22
UAGGCU: 0.742
GAUGGG: 4.03
UGCCUG: 0.832
AUCAUG: 0.637
ACCCGA: 0.737
GAAUGA: 1.18
CCGUCG: 0.825
GAGAAG: 1.74
GAACCA: 0.737
UAUCCG: 0.597
GCACGU: 0.926
GGUGCU: 1.32
UGAGCC: 0.81
UAAGCG: 0.934
UACACG: 0.696
UGGAAA: 0.867
CUACCA: 0.595

Sample 2
Target: RNA binding protein fox-1 homolog 2, RRM domain, GST-SBP tag (RBFOX2, Homo sapiens, UniProt O43251-10, residues 100-194)
Method: RNA Bind-n-Seq
Molecule type: RNA
Medium: in vitro
Concentration: 365 nM
Notes: natural RNA segment, single round, ends assumed
Baseline: no-protein control
Direction: higher = stronger binding
Quantity: RBNS enrichment (R)
Shared flanks, not repeated: GGGAGUUCUACAGUCCGACGAUC … UGGAAUUCUCGGGUGCCAA
Construct (chain): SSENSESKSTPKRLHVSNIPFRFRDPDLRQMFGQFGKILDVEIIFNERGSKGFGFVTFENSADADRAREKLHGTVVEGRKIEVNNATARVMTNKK
GACUGUGUUGAUUACCUUCACUAUUCGGCCAGCCUGACCUUUUAAUAACUUUGUAAAAAGCAUGUAUGUAUUUAUAGUGUUUUAGAUUUUUCUAACUUUUAUAUCUUAAA: 1.39
CAACAGUUCUCACUGCCUGGCCUUUGGAAGGUCACUUAACAUUUGUUGUUGUUUUGUUUUGUUUUUUGUUUUGCUUUUGCGGUAACUGCACCACUAUGAAACAUUGACUU: 0.302
GAAGACUGUUCCACACCACAGAAAACCAACUUCAUUUUCUACUCAGAAUUUAUACCAAGAGACUCUUGUAGACGCCGCGGAUGUCCUCUAUAUUGUGAUACAGAAACUGU: 0.451
CCUCUCAGCCUAGCCUCUCCUCACUCAUUUUCAACGCUGACCCUGACAGGAUCCACAGACUUCUCCAGGACCUUCCAGAGACCCUGCCAGCUGUUAGAGGACAGAGCCAG: 0.43
CAGCUUCAUUGGGCUGCUUCCUCUGAAGGAAUCCUUGAGAGUCAGUGAAUGUUCUAUCAGCAUGAGUGACCAGGGCAAGGACCUGCUGGACAGUGUGUGAUUGGUUCACC: 3.93
UUUAAAUUUUCAAAAGAAAAUUUUCUUUCAACAUUUCUUGAAGGACAUGGAGUGGAGAUUGGAUCAUUUAACAAUAUAACAAAACUUCCUGAUUUGAUUUUACGUAUCUU: 0.673
AGACAGGAAAGGGUGCUGUGCUAGUAGUGAGAGUGACACAGAUUGCCUCAUGAUUGUCUGGAGUGUAUCAUGAAACAAAAGUCCACCAUGGAUUGCAAGCUUUAGAACGA: 1.44
ACAUGCGCCACCAAGCAGAUCCCAGCAAGGGUGCCCCAGUCACAUCCUUGGCCAUGCAGUUAGCACCUUCCUGUCAUGGGGAAGAUAUAGUGAAUUGCCCUGAGCUGCCU: 0.261
CAGGCUGCUCCAGGGGCCUCCUGCGCCCUCACCUGCCACAGAGCAACCCAGGUUAAAUACAGCCCAUGCACAAAGCCACAGGCCAAAGCCUAUGGAAUUGUUUUUAAUCA: 0.299
CCUCAGAGCCUGGACUAGUUCUGAGCAUGUGUCCCUCUGUGUAUAGUGAGGAAGUGAGAGCAGAGGCUGGAAACUCAAUCCCAAGGGGAGAUCUGCCUUCCUACCCUCGG: 2.58
UCUAUUUCUCCCAACCAAAUCCUCUUAAAGACCCUUUGCUAUGUAGUCUCAUGGUCUAGCAUGCAUCUUGUAGAAACAAGGCAUGCUGGCAGAUUGCAGGGUUGAGAUGU: 0.347
UCCCUUUCUUUGACUGACAGAGCACCAUCCAGGCAAAAUUAGAGCGCCAAAUGGUUUUCUUCUCAAUCUUAAAGCAGUAUACCUUUCCACAGGCUCGUCUGUGUCCCUGC: 0.301

Sample 3
Target: Interferon regulatory factor 5, full length, phosphomimetic (IRF5, Homo sapiens, UniProt Q13568-2, residues 1-514, K96S/S451D/S453D/S456D/S462D)
Method: protein-binding microarray
Molecule type: double-stranded DNA, one strand shown
Medium: in vitro
Concentration: 250 nM
Notes: 60-bp whole probe
With: salmon DNA 0.4 mg/ml
Baseline: random background probes
Direction: higher = stronger binding
Quantity: log fluorescence
Shared flanks, not repeated: GCCTAGCAC … GTCTTGATTCGCTTGACGCTGCTG
TTAGAACTTAGTATCGATTAGTGCTAG: 8.11 z-score
TTAGGTTTCGGTTTCGGTTTGTGCTAG: 11.9 z-score
TCCCTTCAACAGTGCTGGCTGTGCTAG: 0.0471 z-score
TTAGAACAGAGTTTCGATTAGTGCTAG: 8.12 z-score
GCCGGTTTCGGGTATCGGGACGTGCTA: 8.86 z-score
TTTTTTCTTTTATTAGTGACGTGCTAG: 2.2 z-score
TTTAGAAAGATTAGGGGTGCGTGCTAG: 0.244 z-score
TTTGGACTGCTTCTCCTTTAGTGCTAG: -0.187 z-score
GATGATATCAGTTTCGAGACGTGCTAG: 6.89 z-score
TTAGGTCTCGGTATCGCTTAGTGCTAG: 1.77 z-score
GACGATTCCAGATTCGAGACGTGCTAG: 0.0237 z-score
TTTTTTTTTTTTTGGAATGTGTGCTAG: 1.18 z-score
GACGGTTTCGGGTTTAGGGACGTGCTA: 7.24 z-score
GACGGTTTCGGGTGTCGGGACGTGCTA: 6.93 z-score
TTAGGTCTCCTGCTCCTTTAGTGCTAG: -0.347 z-score
TTATGTTCCCTTTTCCTTTAGTGCTAG: 1.16 z-score
TTAGAACTGGGGTATCGACTAGTGCTA: 0.824 z-score

Sample 4
Target: Fragile X messenger ribonucleoprotein 1, C-terminal low-complexity region (Fmr1, Mus musculus, UniProt P35922)
Method: RNA Bind-n-Seq
Molecule type: RNA
Medium: in vitro
Concentration: 200 nM
Notes: whole 134-nt RNA, ends assumed
With: 150 mM LiCl
Baseline: input library
Direction: higher = stronger binding
Quantity: log2 enrichment
Each molecule: 7-deaza-guanosine replaces G
Shared flanks, not repeated: GGGAGUUCUACAGUCCGACGAUC … UGGAAUUCUCGGGUGUCAAGG
UGGGAGGUGGAUUUGGUUUAUUUUUUUAGCUCAUUUCCAGGGGUGGGAAUUUUUUUUUAAUAUGUGUCAUGAAUAAAGUUGUUUUUGAAA: 0.51
CUGUGCUACACAUCGUAUGUACCGAAUCGGGGAAAAAAGGGAAAAAAGGGGAAAAAAGGGGAAAGUAUUAUGUUACGCCGUUCGGAUCUG: 0.821
UCAAGUCCUGUGCUACACAUCGUAUGUACCGAAUCGGGGAAGGGAAGGGGAAGGGAAAGUAUUAUGUUACGCCGUUCGGAUCUGCACUUC: -0.392
CAAGUCCUGUGCUACACAUCGUAUGUACCGAAUCGGGGAAAGGGGUGGGGUGGGGAAAGUAUUAUGUUACGCCGUUCGGAUCUGCACUUC: -0.248
CAAGUCCUGUGCUACACAUCGUAUGUACCGAAUCGGCCCGGGCCCGGGGCCCGGGAAAGUAUUAUGUUACGCCGUUCGGAUCUGCACUUC: -1.75
AGUCCUGUGCUACACAUCGUAUGUACCGAAUCGGGAAAGGGAAAAAGGGUUUUUGGGAAAGUAUUAUGUUACGCCGUUCGGAUCUGCACU: -2.43
UGGCCCUGGUGGCAUGCGGGGAGGAAGAGGUGGCCUCAUGGAUCGUGAUGGUCCCGGUGGAAUGUUCAGAGGUGGCCGUGGUGGAGACAG: -0.605
AAGUCCUGUGCUACACAUCGUAUGUACCGAAUCGGAGGUUUUUUUGGUUUUUUUGGAAAGUAUUAUGUUACGCCGUUCGGAUCUGCACUU: -1.4
GUCCUGUGCUACACAUCGUAUGUACCGAAUCGGGAAAAAGGGUUUGGGUUUUUUUGGGAAAGUAUUAUGUUACGCCGUUCGGAUCUGCAC: -2.37
CCUGUGCUACACAUCGUAUGUACCGAAUCGGUUUUUUUGGGUUUUUUUGGGUUUUUUUGGGAAAGUAUUAUGUUACGCCGUUCGGAUCUG: -0.933
AGUCCUGUGCUACACAUCGUAUGUACCGAAUCGGCCCCCGGGGCCCCCGGCCCCCGGGAAAGUAUUAUGUUACGCCGUUCGGAUCUGCAC: -2.68
